Assay results from different studies.
Each line is one published result; not all experiments were run side by side.
Technique: steady-state kinetics
B1: enzyme (Homo sapiens, UniProt P50583); chain ALRACGLIIFRRCLIPKVDNNAIEFLLLQASDGIHHWTPPKGHVEPGEDDLETALRETQEEAGIEAGQLTIIEGFKRELNYVARNKPKTVIYWLAEVKDYDVEIRLSHEHQAYRWLGLEEACQLAQFKEMKAALQEGHQFLCSIEA
B2: enzyme (Sulfolobus acidocaldarius, UniProt Q4J7B6); chain MKGILIAFEGIDGSGKSSQASLLKSWLSKRRYTFITEWNSSEWIHDIIKEAKKKNLLTPLTFSLIHATDFADRYEKYILPMLKCGFVVIADRYIYTAYARDSVRGVDIEWVKKLYSFAVKPDITFYIRVPSEVALKRLKSSRRQIKPTEAGADVFPNLTPEEGFIKYQSSIIEVYDRIAEENNFVVVDGTKDPRQVQSEIRGKVMELWRREGL
B3: RPT2 (Arabidopsis thaliana, UniProt Q682S0); chain MATEGKNPINMNSMSSSLARTGQWVFSQDIPTDVVVEVGEANFSLHKFMLVAKSNYIRKLIMESKDSDVTRINLSDIPGGPEIFEKAAKFCYGVNFEITVQNVAALHCAAEFLQMTDKYCDNNLAGRTQDFLSQVALSSLSGAIVVLKSCEILLPISRDLGIVRRCVDVVGAKACNEAMFPCRTPPNWWTEELCILDVDFFSDVVSSMKQRGVKPSSLASAIITYTEKSLRDLVRDHSGRGVKYSDPGDNESDERSQQRDLVQSIVSLLPSDKGLFPVNFLCSLLRCAVFLDTSLTCKNELEKRISVVLEHVSVDDLLIPSFTYDGERLLDLDSVRRIISAFVEKEKNVGVFNGGDFNRGVCSVSLQRVAKTVDSYLAEIATYGDLTISKFNAIANLVPKSARKSDDDLYRAIDIFLKAHPNLDEIEREKVCSSMDPLKLSYDARLHASQNKRLPVNIVLHALYYDQLKLRSGVAEQEERAVVVLPEALKTRSQLQADTTLAKENEALRSELMKMKMYVSDMQKNKNGAGASSSNSSSLVSSKKSKHTFFSSVSKKLGKLNPFKNGSKDTSHIDEDLGGVDITKPRRRRFSIS
B4: enzyme (Vanderwaltozyma polyspora, UniProt A7TM80); chain MSVLISGASGYIAKHIVRVLLEQNYKVIGTVRSQDKADKLLKQYNNPNLSYEIVPEIANLDAFDDIFKKHGKEIKYVIHAASPVNFGAKDLEKDLVIPAINGTKNMFEAIKKYAPDTVERVVMTASYASIMTPHRQNDPTLTLDEETWNPVTEENAYENVFTAYCASKTFAEKEAWKFVKENSDAVKFKLTTIHPSFVFGPQNFDEDVTKKLNETCEIINGLLHAPFDTKVEKTHFSQFIDVRDVAKTHVLGFQKDELINQRLLLCNGAFSQQDIVNVFNEDFPELKGQFPPEDKDTDLNKGVTGCKIDNEKTKKLLAFEFTPFHKTIHDTVYQILHKEGRV
B5: enzyme (Bacillus subtilis, UniProt P14949); chain AIVKATDQSFSAETSEGVVLADFWAPWCGPCKMIAPVLEELDQEMGDKLKIVKIDVDENQETAGKYGVMSIPTLLVLKDGEVVETSVGFKPKEALQELVNKHL
B6: CAB1 (Saccharomyces cerevisiae, UniProt Q04430); chain MPRITQEISYNCDYGDNTFNLAIDIGGTLAKVVFSPIHSNRLMFYTIETEKIDKFMELLHSIIKEHNNGCYRMTHIIATGGGAFKFYDLLYENFPQIKGISRFEEMEGLIHGLDFFIHEIPDEVFTYNDQDGERIIPTSSGTMDSKAIYPYLLVNIGSGVSILKVTEPNNFSRVGGSSLGGGTLWGLLSLITGAQTYDQMLDWAQEGDNSSVDMLVGDIYGTDYNKIGLKSSAIASSFGKVFQNRMTSNKSLENNENKLYSSHESIEKNNGQMFKNPDICKSLLFAISNNIGQIAYLQAKINNIQNIYFGGSYTRGHLTTMNTLSYAINFWSQGSKQAFFLKHEGYLGAMGAFLSASRHSSTKKTST
B7: enzyme (Nitrosopumilus maritimus, UniProt A9A5X4); chain MDSQKFDSIIFDCDGVLVDITQSYDKTIDKTCRYVLKEFAKIDSITIDHKIIDGFKSSGGFNDEVDLVYAAILSLYTANKLNKKPSEFIYDVISNTDKTGIRSVQSYLESIYDVSEFLSKLGSLGDRHNNPVYSIFDQFFFGPELYGKLFDKQSKFSEEGMISNDKVILSVSLLETLQKEFGKKIAVVTGRGIESIRYSLKDMMDYFDTKNSAFLEDEPRELAKPNPATLIRAIQSMESKNCLYVGDSMEDYMMAKDAAQAGHSTTFCAIVGTSTNPEDRRKLFADSGVEMILESINDIPKVLNLV
B8: UGT1A6 (Homo sapiens, UniProt P19224); chain DKLLVVPQDGSHWLSMKDIVEVLSDRGHEIVVVVPEVNLLLKESKYYTRKIYPVPYDQEELKNRYQSFGNNHFAERSFLTAPQTEYRNNMIVIGLYFINCQSLLQDRDTLNFFKESKFDALFTDPALPCGVILAEYLGLPSVYLFRGFPCSLEHTFSRSPDPVSYIPRCYTKFSDHMTFSQRVANFLVNLLEPYLFYCLFSKYEELASAVLKRDVDIITLYQKVSVWLLRYDFVLEYPRPVMPNMVFIGGINCKKRKDLSQEFEAYINASGEHGIVVFSLGSMVSEIPEKKAMAIADALGKIPQTVLWRYTGTRPSNLANNTILVKWLPQNDLLGHPMTRAFITHAGSHGVYESICNGVPMVMMPLFGDQMDNAKRMETKGAGVTLNVLEMTSEDLENALKAVINDKSYKENIMRLSSLHKDRPVEPLDLAVFWVEFVMRHKGAPHLRPAAHDLTWYQYHSLDVIGFLLAVVLTVAFITFKCCAYGYRKCLGKKGRVKKAHKSKTH
B9: enzyme H476A (Methanosarcina mazei, UniProt Q8PVB1); chain MSEQRSVPLREHLLALKPCRHGGLIQETSETYGIPENEILDFSANFNPLGSPFDYPENGLNFEDIIKKSCGKLLEYPDNRYVEFREAAARFVGLGVTPQSIVPGNGSTEIVRLVVESVIEKGDKVLLPWPTFGEYEMQCRITGAEPVCPSQEEVNTLPDEVLEEAKILFICNPNNPTGKLRTREELKVLAERCREHKTLLYVDEAFIELSDPSQSVADLPAENNYVFVMRSLTKDFAIPGIRMGFGIAPPAMADILNTARLSWNLGAIANNTGIALLNIEGGIDSPYLKKAREMILKEGETLKAKIDRIRGFEAGEVNVNFILVDVSKFMLNSSELTARLAARGVLVRDCVSFHGLGKNYIRVAVRTEKENDRLIAAIGDVITEWGREQAKNELQHVIEKASEEGIGGRKTCEYYPCHFEGQNCTFCFCPFYPCENEKTGGKWIQSSRGGRVWSCVDCHLVHKKEIAQKILDCLMAEGDTDELVKVAWKEVMEPIL
Sequence of UniProt Q96C36 (whole entry, unmodified, looked up): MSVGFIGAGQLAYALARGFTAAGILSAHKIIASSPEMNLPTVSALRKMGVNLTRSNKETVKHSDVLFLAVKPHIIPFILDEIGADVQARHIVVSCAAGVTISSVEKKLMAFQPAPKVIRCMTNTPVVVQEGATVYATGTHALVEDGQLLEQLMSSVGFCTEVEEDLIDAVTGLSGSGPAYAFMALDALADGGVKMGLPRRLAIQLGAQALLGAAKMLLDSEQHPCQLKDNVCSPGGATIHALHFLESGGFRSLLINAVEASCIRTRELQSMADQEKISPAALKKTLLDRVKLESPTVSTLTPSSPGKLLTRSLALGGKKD

| Substance | substrate | conditions | Km [µM] |
| --- | --- | --- | --- |
| B1 (enzyme) | Nc1ncnc2c1ncn2[C@@H]1O[C@H](COP(=O)(O)OP(=O)(O)OP(=O)(O)OP(=O)(O)OP(=O)(O)OC[C@H]2O[C@@H](n3cnc4c(N)ncnc43)[C@H](O)[C@@H]2O)[C@@H](O)[C@H]1O | together with: Mg2+ | 33 |
| spt R378K (Sphingomonas paucimobilis) | CCCCCCCCCCCCCCCC(=O)SCCNC(=O)CCNC(=O)[C@H](O)C(C)(C)COP(=O)(O)OP(=O)(O)OC[C@H]1O[C@@H](n2cnc3c(N)ncnc32)[C@H](O)[C@@H]1OP(=O)(O)O | together with: PLP | 24 |
| B2 (enzyme) | Nc1ncnc2c1ncn2[C@@H]1O[C@H](COP(=O)(O)OP(=O)(O)OP(=O)(O)O)[C@@H](O)[C@H]1O | pH 7.4, 70 °C | 1220 |
| enzyme (Acinetobacter baumannii, UniProt B7I618) | Nc1ncnc2c1ncn2[C@@H]1O[C@H](COP(=O)(O)OP(=O)(O)OP(=O)(O)O)[C@@H](O)[C@H]1O | pH 7.4, 24 °C, apparent | 41.9 |
| enzyme (Caenorhabditis elegans, UniProt Q86D21) | C[C@@H](O)[C@H](N)C(=O)O | pH 7.5, 37 °C, together with: ATP | 2450 |
| enzyme M50A (Homo sapiens, UniProt Q08623) | O=c1[nH]cc([C@@H]2O[C@H](COP(=O)(O)O)[C@@H](O)[C@H]2O)c(=O)[nH]1 | pH 7, 25 °C | 39 |
| B3 (RPT2) | Nc1nc2c(ncn2[C@@H]2O[C@H](COP(=O)(O)OP(=O)(O)OP(=O)(O)O)[C@@H](O)[C@H]2O)c(=O)[nH]1 | pH 7.5, 30 °C | 34700 |
| B4 (enzyme) | CCO | pH 8, 30 °C, together with: NADP+ | 55900 |
| B5 (enzyme) | N[C@@H](CSSC[C@H](N)C(=O)N[C@H]1[C@@H](O[C@@H](CC(=O)O)C(=O)O)O[C@H](CO)[C@@H](O)[C@@H]1O)C(=O)N[C@H]1[C@@H](O[C@@H](CC(=O)O)C(=O)O)O[C@H](CO)[C@@H](O)[C@@H]1O | pH 8 | 34 |
| B6 (CAB1) | CC(C)(CO)[C@@H](O)C(=O)NCCC(=O)O | pH 7.4, 80 °C, together with: ATP 1000 µM | 182 |
| enzyme (Cryptosporidium parvum, UniProt Q8IS93) | NC(=O)C1=CN([C@@H]2O[C@H](COP(=O)(O)OP(=O)(O)OC[C@H]3O[C@@H](n4cnc5c(N)ncnc54)[C@H](OP(=O)(O)O)[C@@H]3O)[C@@H](O)[C@H]2O)C=CC1 | pH 7.4, together with: DTNB 4 mM | 17.9 |
| enzyme (Pediococcus pentosaceus, UniProt A0AB73HHR8) | COc1cccc(OC)c1O | pH 3.7, 24 °C, together with: CuSO4 1 mM | 1540 |
| B7 (enzyme) | N[C@H](COP(=O)(O)O)Cc1c[nH]cn1 | pH 7.8, 25 °C | 73 |
| enzyme (Bacteroides fragilis, UniProt Q5LAD6) | C[C@@H]1O[C@@H](Oc2ccc([N+](=O)[O-])cc2Cl)[C@@H](O)[C@H](O)[C@@H]1O | pH 8.4, 40 °C | 552 |
| enzyme (UniProt A0A097IUD8) | C=C(OP(=O)(O)O)C(=O)O | pH 6, 25 °C, together with: 2 mM ADP | 1330 |
| enzyme (Oryza sativa, UniProt Q6ZGQ4) | O=[N+]([O-])c1ccc(O[C@@H]2O[C@@H](CO)[C@H](O)[C@H]2O)cc1 | pH 4, 40 °C, apparent | 56000 |
| HNL E79H/G176S/H103V/K236M/N104A/T11G (Hevea brasiliensis) | CC(=O)Oc1ccc([N+](=O)[O-])cc1 | pH 7.2, 22 °C | 40 |
| B8 (UGT1A6) | O=c1cc(C(F)(F)F)c2ccc(O)cc2o1 | 37 °C, not purified | 97 |
| PYCR2 (Homo sapiens, UniProt Q96C36) | NC(=O)C1=CN([C@@H]2O[C@H](COP(=O)(O)OP(=O)(O)OC[C@H]3O[C@@H](n4cnc5c(N)ncnc54)[C@H](O)[C@@H]3O)[C@@H](O)[C@H]2O)C=CC1 | pH 7.5, 37 °C, apparent, cofactor varied, together with: DL-P5C 5000 µM | 298 |
| B9 (enzyme H476A) | Nc1ncnc2c1ncn2[C@@H]1O[C@H](COP(=O)(O)OP(=O)(O)OP(=O)(O)O)[C@@H](O)[C@H]1O | pH 8.5, 25 °C, apparent, anoxic, together with: L-Thr 10 mM | 108 |

Some of these lines once more:
| Substance | substrate | conditions | Km [µM] |
| --- | --- | --- | --- |
| B2 (enzyme) | Nc1ncnc2c1ncn2[C@@H]1O[C@H](COP(=O)(O)OP(=O)(O)OP(=O)(O)O)[C@@H](O)[C@H]1O | pH 7.4, 70 °C | 1220 |
